Experimental data of several laboratories.
Lines come from different studies, so protocols differ. ± gives the spread as reported.
CACNA1C: Voltage-dependent L-type calcium channel subunit alpha-1C (CACNA1C, Homo sapiens, UniProt Q13936)
GRPR: Gastrin-releasing peptide receptor (GRPR, Homo sapiens, UniProt P30550)
MGLL: Monoglyceride lipase (MGLL, Homo sapiens, UniProt Q99685)
CSK: Tyrosine-protein kinase CSK (CSK, Homo sapiens, UniProt P41240)
RET: Proto-oncogene tyrosine-protein kinase receptor Ret (RET, Homo sapiens, UniProt P07949)

C[C@H]1CN(C(=O)c2cn(-c3ccnc(N)n3)c3cc(C#CC4(O)CCCCC4)ccc23)CCN1 — IC50 (Serine/threonine-protein kinase PAK 4 (PAK4, Homo sapiens, UniProt O96013); enzyme activity, inhibitor, TR-FRET): 18.3 nM
COC(=O)N[C@H]1CC[C@@H](Nc2cc(NCc3ccccc3F)n3ncc(C(C)C)c3n2)CC1 — IC50 (Cyclin-dependent kinase 7, with cyclin H, MAT1 (CDK7, Homo sapiens, UniProt P50613); enzyme activity, inhibitor, luciferase kinase): 170 nM
CC1=C(/C=C/C(C)=C/C=C/C(C)=C/CO)C(C)(C)CCC1 — IC50 (Cyclic nucleotide-gated channel alpha-1 (CNGA1, Bos taurus, UniProt Q00194); cGMP-activated current, inhibitor, inside-out patch clamp; Xenopus oocytes; 1 h steady state, +100 mV, with: 2 mM cGMP): 300 nM
O=S(=O)(Nc1cscn1)c1c(F)cc(NCc2c(F)ccc(F)c2CN2CCC2)cc1F — IC50 (Sodium channel protein type 4 subunit alpha (SCN4A, Homo sapiens, UniProt P35499); sodium current, inhibitor, automated patch clamp; inactivated state protocol): 20800 nM
NS(=O)(=O)c1ccc(N2N=C(C(F)(F)F)C(O)C2c2ccc(F)cc2F)cc1 (stereo not drawn) — IC50 (Prostaglandin G/H synthase 1 (Canis lupus familiaris, UniProt Q8HZR1); TXB2 formation, inhibitor; clotting dog whole blood; 1 h, 37 °C): > 500000 nM
O=C(COc1cc2ccccc2cc1C(=O)NCc1ccccc1)Nc1ccccc1N1CCCC1=O — IC50 (CACNA1C; calcium signal, fluorescence): 10400 nM
Cc1cc2c(NC(=O)N[C@@H]3CC(C)(C)Oc4cc(C(F)(F)F)ccc43)c(C)ccc2cn1 — IC50 (Transient receptor potential cation channel subfamily V member 1 (TRPV1, Homo sapiens, UniProt Q8NER1); acid-evoked calcium influx, antagonist; HEK293, human; pH 5): 107 ± 18.3 nM
NC(=S)N/N=C/c1cc(Cl)ccc1O — IC50 (Superoxide dismutase [Cu-Zn] (SOD1, Homo sapiens, UniProt P00441); enzyme activity, inhibitor; HeLa; 24 h): 790 nM
O=C(Nc1ccn(Cc2ccc(O)cc2C(F)(F)F)n1)c1c(F)cccc1F — IC50 (Calcium release-activated calcium channel protein 1, with STIM1 (ORAI1, Homo sapiens, UniProt Q96D31); STIM1-mediated current, inhibitor, whole-cell patch clamp; HEK293 cells; estimated from single concentrations): ~4100 nM
N[C@@H](CCC(=O)N[C@@H](CS[Se]Cc1ccc(-c2cccc(C(O)c3ccc(Cl)c(Cl)c3)c2)cc1)C(=O)NCC(=O)O)C(=O)O (stereo partly drawn) — IC50 (Tyrosine-protein phosphatase non-receptor type 7 (PTPN7, Homo sapiens, UniProt P35236); enzyme activity, inhibitor; with: pNPP, GSH 1 mM): 2500 ± 100 nM
CC[C@H](C)[C@H](NC(=O)[C@H](CCC(=O)O)NC(=O)[C@@H](NC(=O)[C@H](CCC(N)=O)NC(=O)[C@@H](N)CCCCN)[C@@H](C)CC)C(=O)N[C@@H](CCCCN)C(=O)N[C@@H](CCCCN)C(=O)N[C@@H](Cc1ccccc1)C(=O)N[C@@H](CCCCN)C(=O)O — IC50 (Gap junction alpha-1 protein (GJA1, Homo sapiens, UniProt P17302); ATP release, inhibitor; C6-Cx43; 5 min, extracellular application, with: A23187 2.2 µM): ~47000 nM
O=C(O)c1ccc2nc(-c3ccc(OCCCCCCOc4ccc(-c5nc6ccc(C(=O)O)cc6[nH]5)cc4)cc3)[nH]c2c1 — IC50 (Dihydrofolate reductase type 2 (Escherichia coli, UniProt P00383); enzyme activity, inhibitor; pH 7): 180000 ± 95000 nM
O=C(NCCCN1CCC(Cc2ccccc2)CC1)c1ccc2ccccc2c1 — IC50 (Sodium-dependent dopamine transporter (SLC6A3, Homo sapiens, UniProt Q01959); transporter uptake, inhibitor, radiometric): > 10000 nM
O=C(O)C(=O)N1CCc2cccc(F)c2C1 — IC50 (Dual specificity protein phosphatase 3 (DUSP3, Homo sapiens, UniProt P51452); enzyme activity, inhibitor, fluorescence): 490000 nM
C#CC[C@H](NC(=O)c1ccc(C(=O)c2ccccc2)cc1)C(=O)NCCCCCC(=O)N[C@@H](CCCCNC(=O)CSCCNC(=O)CCNC(=O)[C@H](O)C(C)(C)COP(=O)(O)OP(=O)(O)OC[C@H]1O[C@@H](n2cnc3c(N)ncnc32)[C@H](O)[C@@H]1OP(=O)(O)O)C(N)=O — IC50 (Histone acetyltransferase p300 (EP300, Homo sapiens, UniProt Q09472); enzyme activity, inhibitor): 26.7 nM
COc1cc(C(C2C(=O)CC(C)(C)CC2=O)C2C(=O)CC(C)(C)CC2=O)ccc1O — IC50 (PCO4 (Arabidopsis thaliana, UniProt Q9SJI9); enzyme activity, inhibitor, RapidFire Q-TOF MS; with: RAP2 peptide substrate): 264400 ± 1070 nM
CC(C)C[C@@H](CN[C@@H](Cc1ccc(Cl)cc1)C(N)=O)NC(=O)[C@H](Cc1c[nH]cn1)NC(=O)CNC(=O)[C@@H](NC(=O)[C@H](C)NC(=O)[C@H](Cc1c[nH]c2ccccc12)NC(=O)[C@H](CCC(N)=O)NC(=O)[C@H](N)Cc1ccccc1)C(C)C — IC50 (GRPR; inositol phosphate generation, antagonist; Balb 3T3 expressing GRPR; with: GRP 1 nM): 10.3 ± 1.2 nM
CC[C@H](C)[C@H](NC(=O)[C@H](CC(C)C)NC(=O)[C@@H]1CCCN1C(=O)[C@H](CC(C)C)NC(=O)[C@@H]1CCCN1C(C)=O)C(=O)N[C@@H](Cc1ccccc1)C(=O)N[C@@H](CCC(N)=O)C(=O)N[C@H](C(=O)N[C@H](C(=O)N1CCC[C@H]1C(=O)N[C@@H](CC(C)C)C(=O)N[C@@H](CC(N)=O)C(=O)N[C@@H](CC(C)C)C(=O)N[C@H](C(=O)N[C@@H](CCC(N)=O)C(=O)N[C@@H](Cc1c[nH]c2ccccc12)C(=O)N[C@@H](CC(C)C)C(=O)N[C@@H](CCSC)C(=O)N[C@H](C(=O)N[C@@H](CC(C)C)C(=O)O)C(C)C)[C@@H](C)O)[C@@H](C)O)[C@@H](C)CC — IC50 (H2-Aa/H2-Ab1 (Mus musculus, UniProt P01910+P06343); binding, DELFIA competition; pH 7.0, with: biotinylated HEL peptide): 8090 ± 1940 nM
CC1CC(Nc2ncnc3nc[nH]c23)CC(C)(C)C1 (stereo not drawn) — IC50 (Chemotaxis protein CheA (Escherichia coli, UniProt P07363); enzyme activity, inhibitor, radiometric): 413000 nM
O=C(OC(C(F)(F)F)C(F)(F)F)N1CCC(CCn2ccc3cccnc32)CC1 — IC50 (MGLL; enzyme activity, inhibitor): 350 nM
C[C@H](OP(=O)(O)O)[C@H]1NC(=O)[C@@H](CCCNC(=N)N)NC(=O)[C@@H](CCCNC(=N)N)NC(=O)[C@H](CCCNC(=N)N)NC(=O)[C@H](Cc2ccc(F)cc2)NC(=O)[C@H](Cc2ccc3ccccc3c2)NC(=O)[C@@H]2CCCCN2C1=O — IC50 (Peptidyl-prolyl cis-trans isomerase NIMA-interacting 1 (PIN1, Homo sapiens, UniProt Q13526); fluorescence anisotropy competition; with: FITC-labelled probe): 960 ± 210 nM
C=CC(=O)N1CCc2ccc(-n3c(=O)ccc4cnc5ccc(-c6cnn(C)c6)cc5c43)cc21 — IC50 (CSK; enzyme activity, inhibitor): > 10000 nM
CC(C)C[C@H]1CN[C@H](C(N)=O)CSSC[C@@H](N)C(=O)N[C@@H](CCC(N)=O)C(=O)N[C@@H](Cc2c[nH]c3ccccc23)C(=O)N[C@@H](C)C(=O)N[C@@H](C(C)C)C(=O)N[C@H](C)C(=O)N[C@@H](Cc2c[nH]cn2)C(=O)N1 — IC50 (GRPR; inositol phosphate generation, antagonist; Balb 3T3 expressing GRPR; with: GRP 1 nM): 2000 nM
COCCCn1nc(I)c2c(N)ncnc21 — IC50 (RET; enzyme activity, inhibitor): 1900 nM
Cc1ccc(CNC(=O)[C@H](CC(C)C)NC(=O)[C@H](CCc2ccccc2)NC(=O)c2cnc(C)cn2)cc1 — IC50 (Proteasome component C5/PSMB5 (Homo sapiens, UniProt P20618+P28074); β5 activity, inhibitor; with: Suc-LLVY-AMC, PA28α-activated): 6540 nM
CN(C)c1ccc2c(c1)C(=O)N(C(C(=O)O)C(C)(C)S)C2=O (stereo not drawn) — IC50 (Metallo-beta-lactamase VIM-2 (VIM-2, Escherichia coli, UniProt Q5U7L7); enzyme activity, inhibitor; pH 7): > 30000 nM
O=C(N[C@@H](CC1CCCCC1)C(=O)N[C@@H](C[C@H]1CCNC1=O)C(=O)C(=O)NC1CC1)OCc1cccc(Cl)c1 — IC50 (Genome polyprotein, 3C protease (rhinovirus B14, UniProt P03303); 3C protease activity, inhibitor, FRET): 20 ± 10 nM
CNC(=O)C1CCN(c2ccccc2NC(=O)c2ccc(-c3cc(O)ccc3C)c(C)c2)CC1 — IC50 (Ephrin type-A receptor 5 (EPHA5, Homo sapiens, UniProt P54756); target engagement in cells, BRET): 10.8 nM
C[C@H](NC(=O)c1cc(S(=O)(=O)N2CCOCC2)ccc1N1CCCCC1)c1cc2ccccc2o1 — IC50 (CACNA1C; calcium signal, fluorescence): 3300 nM
O=C(NCCCN1CCC(Cc2ccccc2)CC1)c1cccc2ccccc12 — IC50 (Sodium-dependent noradrenaline transporter (SLC6A2, Homo sapiens, UniProt P23975); transporter uptake, inhibitor, radiometric): 870 to 7430 nM
CC[C@H](C)[C@H](NC(=O)[C@@H]1CSSC[C@H](NC(=O)[C@H](Cc2ccc(O)cc2)NC(=O)CN)C(=O)N[C@@H](CO)C(=O)N[C@@H](CCCNC(=N)N)C(=O)N[C@@H](CO)C(=O)N[C@@H](Cc2ccc(O)cc2)C(=O)N2CCC[C@H]2C(=O)N2CCC[C@H]2C(=O)N[C@@H](C(C)C)C(=O)N1)C(=O)N1CCC[C@H]1C(=O)N[C@@H](CC(=O)O)C(=O)O — IC50 (Mannan-binding lectin serine protease 2 (Homo sapiens, UniProt O00187); C3 deposition, inhibitor, ELISA; 100-fold diluted human serum; 30 min preincubation): 819 nM
Cc1nc(Nc2ncc(C(=O)Nc3c(C)cccc3Cl)s2)cc(N2CCN(CCOC(=O)CCCCCCCCCCN)CC2)n1 — IC50 (CSK; enzyme activity, inhibitor): 30 nM
Cn1c(Sc2c3c(c(C#N)c4nc5ccccc5n24)CCC3)nnc1-c1ccccc1 — IC50 (ERO1-like protein alpha (Homo sapiens, UniProt Q96HE7); enzyme activity, inhibitor, fluorescence): 16800 nM
O=C1Nc2cc(Cl)ccc2/C1=C\c1cccc(Cl)c1Cl — IC50 (alpha-amylase; inhibitor; with: starch): 42400 nM
CN(C(=O)c1ccn2ncc(-c3ccc(C(N)=O)cc3)c2c1)c1ccc(C#N)cn1 — IC50 (RET; enzyme activity, inhibitor): > 10000 nM
O=C(O)C(CO)NCc1cc(Cl)c(OCc2cccc(-c3ccccc3)c2Br)cc1OCc1cccnc1 (stereo not drawn) — IC50 (Programmed cell death 1 ligand 1 (Cd274, Mus musculus, UniProt Q9EP73); protein-protein interaction, inhibitor, ELISA): > 10000 nM
O=C(CCCCC1CCSS1)NCCC(=O)NC(Cc1cnc[nH]1)C(=O)O (racemic) — IC50 (Transient receptor potential cation channel subfamily A member 1 (Trpa1, Mus musculus, UniProt Q8BLA8); ion current, patch clamp): 10300 nM
O=C(OC(C(F)(F)F)C(F)(F)F)N1CCC(Cn2ccc3cc(F)ccc32)CC1 — IC50 (MGLL; enzyme activity, inhibitor): 830 nM
O=C(/C=C(\O)C(F)(F)C(F)(F)F)c1cccnc1 — IC50 (Formate-nitrite transporter (FNT, Plasmodium malariae, UniProt A0A1C3KYI2)): 210 ± 20 nM
C[C@@H]1NC(=O)[C@H](CCCNC(=N)N)NC(=O)[C@H](CCCCN)NC(=O)[C@@H](Cc2ccccc2)NC(=O)[C@H](CC(=O)O)NC1=O — IC50 (Integrin alpha-V/beta-5 (Homo sapiens, UniProt P06756+P18084); fibronectin binding, inhibitor; 3 h, with: biotinylated fibronectin): > 10000 nM
CSCC[C@H](NC(=O)[C@H](CC(C)C)NC(=O)[C@H](Cc1cnc[nH]1)NC(=O)CNC(=O)[C@@H](NC(=O)[C@H](C)NC(=O)[C@H](Cc1c[nH]c2ccccc12)NC(=O)[C@H](Cc1cnc[nH]1)NC(=O)[C@H](CC(N)=O)NC(=O)CN)C(C)C)C(N)=O — IC50 (GRPR; ligand displacement in cells, radioligand): 0.14 nM
CC1=CC(C)=[N+]2C1=C(CCCCc1cn(CC(=O)N3CCc4nc(NC(=O)[C@H]5CCN(C#N)C5)sc4C3)nn1)c1c(C)cc(C)n1[B-]2(F)F — IC50 (Ubiquitin carboxyl-terminal hydrolase isozyme L1 (UCHL1, Homo sapiens, UniProt P09936); enzyme activity, inhibitor, fluorescence; with preincubation): ~1000 nM

Excerpt of the above:
Cc1nc(Nc2ncc(C(=O)Nc3c(C)cccc3Cl)s2)cc(N2CCN(CCOC(=O)CCCCCCCCCCN)CC2)n1 — IC50 (CSK; enzyme activity, inhibitor): 30 nM
Cn1c(Sc2c3c(c(C#N)c4nc5ccccc5n24)CCC3)nnc1-c1ccccc1 — IC50 (ERO1-like protein alpha (Homo sapiens, UniProt Q96HE7); enzyme activity, inhibitor, fluorescence): 16800 nM
O=C1Nc2cc(Cl)ccc2/C1=C\c1cccc(Cl)c1Cl — IC50 (alpha-amylase; inhibitor; with: starch): 42400 nM
CN(C(=O)c1ccn2ncc(-c3ccc(C(N)=O)cc3)c2c1)c1ccc(C#N)cn1 — IC50 (RET; enzyme activity, inhibitor): > 10000 nM
